Published values of several laboratories.
A part holds a random share of what one study measured. Changes are numbered by the printed parent chain.

Study 1
Target: Max-binding protein MNT, bHLH-zipper, MAX partner unstated (MNT, Homo sapiens, UniProt Q99583, residues 220-300)
Method: protein-binding microarray
Molecule type: double-stranded DNA, one strand shown
Matrix: in vitro
Concentration: not given
Setting: k-mer, scored over probes, only values ≥0.25
Reading: higher = stronger binding
Measurement: E-score
Construct (chain): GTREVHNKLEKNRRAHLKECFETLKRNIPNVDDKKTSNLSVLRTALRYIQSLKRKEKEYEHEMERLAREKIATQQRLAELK
Strand = ATGAGGTG; result = 0.254
Strand = CTGTCCCC; result = 0.298
Strand = CCATGCTC; result = 0.339
Strand = ACATGATC; result = 0.346
Strand = AACCCACC; result = 0.271
Strand = AGCATGCA; result = 0.389
Strand = ACGTGCAC; result = 0.469
Strand = ACGTGCCA; result = 0.444
Strand = GGAGTGCA; result = 0.269
Strand = CCACACCC; result = 0.292
Strand = GTGCCCCA; result = 0.286
Strand = CATGGCGC; result = 0.283
Strand = GCACGAGC; result = 0.32
Strand = AATCACGC; result = 0.351

Study 2
Target: RING finger protein unkempt homolog, zinc fingers 1-6, GST-SBP tag (UNK, Homo sapiens, UniProt Q9C0B0, residues 30-357)
Method: RNA Bind-n-Seq
Molecule type: RNA
Matrix: in vitro
Concentration: not given
Setting: RNA with constant flanks, ends assumed
Reference: input RNA pool
Reading: higher = stronger binding
Measurement: bound/input enrichment
Residues (chain): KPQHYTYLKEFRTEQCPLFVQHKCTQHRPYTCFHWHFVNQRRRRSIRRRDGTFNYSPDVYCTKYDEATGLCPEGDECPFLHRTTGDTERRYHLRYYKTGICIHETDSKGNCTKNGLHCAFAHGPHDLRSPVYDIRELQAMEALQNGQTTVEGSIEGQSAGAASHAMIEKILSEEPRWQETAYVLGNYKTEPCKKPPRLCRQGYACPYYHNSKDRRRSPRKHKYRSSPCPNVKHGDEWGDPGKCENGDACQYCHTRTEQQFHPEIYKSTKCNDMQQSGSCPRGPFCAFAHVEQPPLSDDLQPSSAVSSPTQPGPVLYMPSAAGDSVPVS
Strand = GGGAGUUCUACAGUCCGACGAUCAAUGAGGCUGGUGAUGACCUUGAAGCUGUAGCCAAAUUUCUGGACUCUACAGGCUCAAGAUCCGAUUAUCGUCGCUAUGCAGACACACUCUUCGAUAUCCUGGUGGCUGGCAGUAUGCUUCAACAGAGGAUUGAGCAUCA; result = 0.261 ratio
Strand = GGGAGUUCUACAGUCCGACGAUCUUUUUGAAGGGUGUGAUGCUUGGAAGCAUCUUCUGUGCCUUGAUCACUAUGCUAGGCCACAUCCGGAUUGGAAACAGAAUGCACCACCAUGAGCAUCACCAUCUGCAAGCCCCUAACAAACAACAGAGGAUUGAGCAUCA; result = 0.116 ratio
Strand = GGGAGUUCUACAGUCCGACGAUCGAGGUCCUGAGACAGGAAGACAAAGCUGAAGCCAUGUCCGGCCAUAUUGAUCAGUUUCUGACCGCCACUUUUAUGCAGCUAAGACUCAUCUACAACACACACAUGGCAGAUGAGAAAUUGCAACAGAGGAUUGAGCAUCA; result = 0.214 ratio
Strand = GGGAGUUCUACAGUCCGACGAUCAGCAUUUGAUUAUUUUUUUUAAAUACACUCUCUUAUUUUUCUACUUGUUUUUUUGUUAAUCACCGCAGGAUAUGACAACUCUUAUUUGAAUUGAUUUUUUCAUCUAAUGUAAUAAUGGAACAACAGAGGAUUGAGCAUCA; result = 2.63 ratio
Strand = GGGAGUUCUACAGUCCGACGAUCGUAAAGAGUUAAAGACUAUGUGAAGGAUUGUAUAUUUAAGUUAUUGAAAUUCUGAAACUGCCGUAAUCUAAAAUGUGUGAGUUGUGGGCUGCAGAGAAGACUCAGCCAGUAAAGGCACCUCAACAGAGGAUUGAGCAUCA; result = 0.538 ratio
Strand = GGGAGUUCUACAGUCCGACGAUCUGAAACAGGGAGAGGCUGACACCCCCCCACCCUCCACCCCCGUGUCCACAACCCCCAACCCCGCUGUCUUCUCAGGGCCUGCCACCCAAAUAAGUCUGGCCCUAGCCUCAACUCUCUCUCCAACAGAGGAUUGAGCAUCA; result = 0.661 ratio
Strand = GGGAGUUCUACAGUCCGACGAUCCUGGGAGAUCUUCGAACUUUGGAAUUGCUUCUUAUCUGUGCAGGCCACCCUCAGUAUGAGGCCGCCGAAAUUUCCUUUAACUUUUGGUACCGACUAGGAGAACAUUUAUACAAAACCAAUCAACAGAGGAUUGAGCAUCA; result = 0.977 ratio
Strand = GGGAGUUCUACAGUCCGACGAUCGGUCACACCAGGCCUAAGAAGGCAGAAGUUGAAUCAAUUGAACUAGGGCACUAAACUGAACCGUUGACAGUGUCAUUUUAUGUUGGAUUAUUAAUUCCUGUUUUUCUUUCUGCUAUCUGUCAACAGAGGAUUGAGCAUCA; result = 0.188 ratio
Strand = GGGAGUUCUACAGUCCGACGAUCUUAGAUUUCAUUGGUAAUAAUGAGUCUCCACGUAAAAAAUUCCCCCCAAUGACAUCUUACCACCGGAUGCUAUUACACAGAGUAGCCGCUUACUUUGGAUUAGACCACAAUGUUGAUCAGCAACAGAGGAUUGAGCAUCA; result = 1.17 ratio
Strand = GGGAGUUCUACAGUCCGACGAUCGAGGAAGGACUGAAGACAGCGGACCCUCAUGACUGCUCUGCAUAUACUGGUUGGACAGGCACCGCACUUUUGUACCUGCAGCUGUACCGGGUCACUGGUGACCAGACCUACCUGCUUCGACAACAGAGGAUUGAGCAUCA; result = 0.067 ratio
Strand = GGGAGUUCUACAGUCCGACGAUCCUUGUAUUUCCUCCUUCUGUUGCUCUCUUUCAUUCACACACUCUCAGUUUCUCAUAUUUGCCGCUCAUUUAUUUGGUUAUUUCCUAAGAAUAUUGAAAGUGAAGCAACUAUGUGACUGUACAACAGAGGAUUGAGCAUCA; result = 0.106 ratio

Study 3
Target: Histone acetyltransferase KAT6A, winged helix 1, GST fusion (KAT6A, Homo sapiens, UniProt Q92794, residues 1-85)
Method: protein binding microarray
Molecule type: double-stranded DNA, one strand shown
Matrix: in vitro
Concentration: not given
Setting: 8-mer, flanks averaged, mean of 2 arrays, mostly near background
Reference: not given
Reading: higher = stronger binding
Measurement: E-score
Residues (chain): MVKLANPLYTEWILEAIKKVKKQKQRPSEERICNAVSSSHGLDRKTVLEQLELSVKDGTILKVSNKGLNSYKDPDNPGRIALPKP
Strand = TTCATGAA; result = -0.199
Strand = ATATTGAC; result = 0.0607
Strand = AAGACACT; result = -0.0989
Strand = CGCTAGTA; result = 0.25
Strand = GAAGAGGA; result = -0.0331
Strand = AAATTAGT; result = -0.0636
Strand = GTGTATCA; result = -0.16
Strand = AAGACCAA; result = -0.0781
Strand = TAATAGCA; result = -0.162
Strand = AAGCGGAG; result = -0.0542
Strand = GGCTACCA; result = -0.0724
Strand = CTAGTACC; result = -0.0139
Strand = AAAGCGGG; result = 0.215
Strand = AGTGTGAC; result = -0.288
Strand = ATGGACCC; result = -0.0634
Strand = ATATTTTC; result = -0.0457
Strand = TAAAGTAA; result = -0.0359
Strand = ATTTACAC; result = -0.0426
Strand = AGCTCATC; result = -0.0922
Strand = GGGTCACC; result = 0.068
Strand = ATAGCTTA; result = -0.131
Strand = GGGTGTAA; result = -0.0345
Strand = CAAGGGGA; result = -0.204
Strand = ATTCTGTG; result = -0.201
Strand = TAATTGGA; result = -0.168

Study 4
Target: Ras GTPase-activating protein-binding protein 1, full length (G3BP1, Homo sapiens, UniProt Q13283)
Chain of UniProt Q13283 (whole entry, looked up): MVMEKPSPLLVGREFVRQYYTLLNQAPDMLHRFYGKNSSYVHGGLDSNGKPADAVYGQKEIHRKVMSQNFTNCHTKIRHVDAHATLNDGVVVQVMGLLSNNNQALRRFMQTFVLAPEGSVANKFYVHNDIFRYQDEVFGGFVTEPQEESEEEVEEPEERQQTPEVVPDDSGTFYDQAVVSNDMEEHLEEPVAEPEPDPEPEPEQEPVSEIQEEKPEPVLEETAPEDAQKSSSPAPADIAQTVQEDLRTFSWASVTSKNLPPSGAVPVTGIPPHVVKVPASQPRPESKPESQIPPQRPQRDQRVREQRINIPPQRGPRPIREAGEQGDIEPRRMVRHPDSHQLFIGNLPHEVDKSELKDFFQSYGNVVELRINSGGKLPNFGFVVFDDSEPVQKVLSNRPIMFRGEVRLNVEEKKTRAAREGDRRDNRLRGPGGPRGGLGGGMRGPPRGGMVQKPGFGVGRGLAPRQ
Method: RNA Bind-n-Seq
Molecule type: RNA
Matrix: in vitro
Concentration: 200 nM
Setting: whole 134-nt RNA, ends assumed
With: 150 mM LiCl
Reference: input library
Reading: higher = stronger binding
Measurement: log2 enrichment
All molecules: 7-deaza-guanosine replaces G
Strand = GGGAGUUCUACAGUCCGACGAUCACCAUGCAGGUGGGCAUCUUUGGGAAGUGGGGCAAGGGGGGGAUAGGGAGAAAGGUAACACUUUGGGAACAGGUGGUCCCAGGUCGUUUCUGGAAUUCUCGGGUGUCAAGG; result = 0.323
Strand = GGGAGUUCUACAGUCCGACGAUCUAACUUUAGAGGAGGAGCUGAUGGAUAUGGCAGUGGACGUGGAUUUGGGGAUGGCUAUAAUGGGUAUGGAGGAGGACCUGGAGGUGGCAAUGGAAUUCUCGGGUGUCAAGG; result = -0.185
Strand = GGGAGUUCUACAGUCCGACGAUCGUCCUGUGCUACACAUCGUAUGUACCGAAUCGUGUGUGUGUGUGUGUGUGUGUGUGUGUAAAGUAUUAUGUUACGCCGUUCGGAUCUGCAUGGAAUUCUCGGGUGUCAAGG; result = -0.826
Strand = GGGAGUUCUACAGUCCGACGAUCGCAGGAAGUAAAAACAAAUGGAAAUGCUUCGGAUAGUGGCAAGGGUGGGGGUUGCUAAGGAAAGGGUGGGAUGGGAGUGGGUAAAGAGUUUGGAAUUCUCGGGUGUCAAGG; result = 0.293
Strand = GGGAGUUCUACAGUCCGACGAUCCUGUGCUACACAUCGUAUGUACCGAAUCGGGAAAAAAAGGAAAAAAAGGGGAAAAAAAGGGAAAGUAUUAUGUUACGCCGUUCGGAUCUGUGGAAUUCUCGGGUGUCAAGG; result = -0.0384
Strand = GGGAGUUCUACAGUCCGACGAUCAAGUCCUGUGCUACACAUCGUAUGUACCGAAUCGGGUUUUUUUGGGAAAGGGAGGGAAAGUAUUAUGUUACGCCGUUCGGAUCUGCACUUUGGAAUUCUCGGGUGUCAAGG; result = -0.14
Strand = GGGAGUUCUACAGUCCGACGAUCUAACUUUAGAGGAGGAUCUGAUGGAUAUGGCAGUGGACGUGGAUUUGGGGAUGGCUAUAAUGGGUAGGGAGGAGGACCUGGAGGUGGCAAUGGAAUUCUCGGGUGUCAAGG; result = -0.379
Strand = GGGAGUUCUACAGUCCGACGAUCUAACUUUAGAGGAGGAUCUGAUGGAUCUGGCAGUGGACGUGGAUUUGGGGAUGGCUAUAAUGGGUAUGGAGGAGGACCUGGAGGUGGCAAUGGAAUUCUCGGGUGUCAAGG; result = -0.146
Strand = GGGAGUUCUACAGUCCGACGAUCGCAGGAAGUAAAAACAAAUGGAAAUGCUUCGGAUAGUGGCAGGGUUGGGGGUUGCUAAGGAAAGGGUGGGAUGGGAGUGGGUAAAGAGUUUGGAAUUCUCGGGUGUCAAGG; result = 0.232
Strand = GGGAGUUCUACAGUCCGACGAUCGCAGGAAGUAAAAACAAAUGGAAAUGCUUCGGAUAGUGGCAGGGGUGGGGGUUGCUAAGGAAAGGGUGGGAUGGGAGUGAGUAAAGAGUUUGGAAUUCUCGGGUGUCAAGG; result = 0.0243
Strand = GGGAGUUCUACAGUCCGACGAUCGAAGAUUGGCUUAAAAUGGCUACUGUGAUGGGAACAGUGUCUUAGGGAGAUGCAGCUUGGACUUGAGGUAAAUUGAAUACUUUACAACUGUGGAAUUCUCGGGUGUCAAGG; result = -0.131

Study 5
Target: CCNA1, cyclin fold, Cln2 fusion (human)
Method: yeast growth competition, sequencing
Matrix: yeast
Setting: weak parent motif
Reference: not given
Reading: higher = stronger binding
Measurement: normalised enrichment score
Starting sequence: CDKN1A docking peptide (human); SKACRRLFGPVDS; partner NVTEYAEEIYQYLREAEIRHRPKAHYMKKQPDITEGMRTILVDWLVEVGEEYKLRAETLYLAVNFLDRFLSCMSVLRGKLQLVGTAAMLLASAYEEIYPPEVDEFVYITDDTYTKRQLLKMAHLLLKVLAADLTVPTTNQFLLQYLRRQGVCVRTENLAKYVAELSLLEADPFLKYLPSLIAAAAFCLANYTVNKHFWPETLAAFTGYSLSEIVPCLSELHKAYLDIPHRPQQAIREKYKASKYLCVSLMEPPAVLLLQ
Variant = C4A; result = 0.369
Variant = F8Y; result = 0.0397
Variant = K2D; result = 0.459
Variant = R6M; result = 0.329
Variant = C4R; result = 1.44
Variant = R6I; result = -0.108
Variant = L7A; result = 0.0667
Variant = K2S; result = 0.392
Variant = F8V; result = 0.33
Variant = P10Q; result = 0.229
Variant = A3F; result = 0.0693
Variant = F8L; result = -0.345
Variant = L7Q; result = 0.272
Variant = R6A; result = 0.151
Variant = R5F; result = -0.137
Variant = D12V; result = 0.914
Variant = C4N; result = -0.0265
Variant = F8E; result = -0.54
Variant = C4P; result = 0.402

Mixed results
Molecule = PhoQ, residues 284 288 289 292 302 303 AAQSYM; target = PhoP, residues 12 14 15 18 19 AQCLL (Escherichia coli, UniProt P23836); test = Sort-seq, measured: YFP reporter; system = E. coli; setting = PhoQ-PhoP variant library, with: 10 µM Mg2+; how to read = reference: high Mg2+ state, higher = stronger signaling; measurement = fold induction; result = 1.32

A few entries again (study 3):
Strand = CTAGTACC; result = -0.0139
Strand = AAAGCGGG; result = 0.215
Strand = AGTGTGAC; result = -0.288
Strand = ATGGACCC; result = -0.0634
Strand = ATATTTTC; result = -0.0457
Strand = TAAAGTAA; result = -0.0359
Strand = ATTTACAC; result = -0.0426
Strand = AGCTCATC; result = -0.0922
Strand = GGGTCACC; result = 0.068
Strand = ATAGCTTA; result = -0.131
Strand = GGGTGTAA; result = -0.0345
Strand = CAAGGGGA; result = -0.204
